Published values of several laboratories.
Numbered parts are unrelated; each lists some results of a single study.

Set 1
Target: RING finger protein unkempt homolog, zinc fingers 1-6, GST-SBP tag (UNK, Homo sapiens, UniProt Q9C0B0, residues 30-357)
Sequence of UniProt Q9C0B0 (30-357, looked up): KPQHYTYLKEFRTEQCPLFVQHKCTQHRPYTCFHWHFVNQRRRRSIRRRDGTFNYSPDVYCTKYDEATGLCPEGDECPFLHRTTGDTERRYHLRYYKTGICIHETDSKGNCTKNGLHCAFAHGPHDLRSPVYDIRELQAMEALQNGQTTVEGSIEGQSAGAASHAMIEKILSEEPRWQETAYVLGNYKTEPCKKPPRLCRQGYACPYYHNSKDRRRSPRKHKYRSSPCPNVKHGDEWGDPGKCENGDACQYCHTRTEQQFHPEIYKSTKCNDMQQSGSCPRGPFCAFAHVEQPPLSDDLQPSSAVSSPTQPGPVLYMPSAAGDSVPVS
Method: RNA Bind-n-Seq
Molecule type: RNA
Matrix: in vitro
Concentration: not given
Notes: RNA with constant flanks, human-mouse chimeric sites, ends assumed
Reference: input RNA pool
Direction: higher = stronger binding
`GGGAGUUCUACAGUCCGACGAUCGAUCAUGAACCACCAUCAGAAAUGAAGAUGAGAUUACCCAGACGAGCCAAAACAGCUAGCACUAGAAAAAAGUAAACUAACCUUGCAGAGUUCCUUAAUGAAGAUACAAGUUAAGAGAGCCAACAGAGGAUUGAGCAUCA` gave a bound/input enrichment of 3.4 ratio.
With `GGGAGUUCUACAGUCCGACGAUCGUUGCCAGCUUCCGGUUGGCCUCCAUCAGCAAGCUCCCUGAGCUACGUGUCUCUACGCUCUCAAUCCGCCAUCCAACAAACAUGGAUCAGGUAAUGCAGUUUGUGGAGCCCAGCCGGCAGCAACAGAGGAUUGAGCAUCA` the bound/input enrichment was 0.0715 ratio.
`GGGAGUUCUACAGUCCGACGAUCGCGGCAGAAUCAUGGAGGACAUAAUGCAGCUCCCCAAGUCGCGCAUCAACGCCGGCAUGUUACCACAGUAUAUCGACCGGCCCGUGUGCUUCGUGGGGAAGCUGGAAAAGAUUCAUCCCACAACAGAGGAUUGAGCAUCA` has a bound/input enrichment of 0.07 ratio.
For `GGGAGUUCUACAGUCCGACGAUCAGGAGGAGGUUAAAGGGUGAGAGUGGGAUGGAGGAUUGUGUCAUGGCUCUGGAGACACUGUUCAGUGUCCUGCUUUCUCUUUGCAGACUGAUGGCCCCUUACACGCCCUUUCUGACUGAGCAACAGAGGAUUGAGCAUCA`, the bound/input enrichment was 0.158 ratio.
For `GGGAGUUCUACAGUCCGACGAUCAAAUCGUGUGUGUCCAAUAUUGAAAGUGCUUUAUCUACACUCCAGUAUGUAAGCAGUAUAGUAGUUUCUUUAGAGAAUAGGUCUGCCAUUGUAAAGUACAAUGCAAGCUCAGUCACUCCACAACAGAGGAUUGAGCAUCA`, the bound/input enrichment was 8.86 ratio.
With `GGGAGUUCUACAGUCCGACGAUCGGACAUCUGUCAAAUUGUUAUGUUCCUGUGAAACAAGUGAACACUCUGAUACACUUCAUCUGCUUGUACAUCUGUAUGAUAGAGAAACAGAAAUCUAUUAAUCCAAGAUGAAUUCAACUUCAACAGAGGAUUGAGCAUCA` the bound/input enrichment was 0.119 ratio.
`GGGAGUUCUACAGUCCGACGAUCCAGCGCCGAGGCCGCGGGUGCCCGCCGGGUGUGCUGAGCAGCAGCCAUGGGCAUCAAAUUUUUAGAAGUUAUCAAACCAUUCUGUGCAGUUCUACCAGAAAUUCAGAAACCGGAAAGGAACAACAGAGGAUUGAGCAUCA` gave a bound/input enrichment of 0.903 ratio.
`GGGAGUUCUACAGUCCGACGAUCUCAGAAGCUGUGCUGGGUCACUUUUCAUAUCCUGAUCCUUCACAGUGGACAGAUGAAGAACUGGGAAUCCCUCCUGAUGACGAGGACUGACACUGUAAACUCUCUGGACGAGUAGGAGCACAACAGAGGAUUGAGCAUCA` gave a bound/input enrichment of 0.656 ratio.

Set 2
Target: Max dimerization protein 1, bHLH-zipper, MAX partner unstated (MXD1, Homo sapiens, UniProt Q05195, residues 56-136)
Method: protein-binding microarray
Molecule type: double-stranded DNA, one strand shown
Matrix: in vitro
Concentration: not given
Notes: k-mer, scored over probes, only values ≥0.25
Direction: higher = stronger binding
Construct (chain): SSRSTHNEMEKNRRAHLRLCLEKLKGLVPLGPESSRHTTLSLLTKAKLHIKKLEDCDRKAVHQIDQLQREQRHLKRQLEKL
With `GCATTGCA` the E-score was 0.256.
`CATGCGGC` has an E-score of 0.412.
For `CACACCTC`, the E-score was 0.258.
`AGCACATG` has an E-score of 0.441.
`ATCCCCGC` has an E-score of 0.268.
The E-score of `GCATGCAC` is reported as 0.389.
`GCGTGCAA` gave an E-score of 0.297.
The E-score of `ACGAGGGC` is reported as 0.274.
The E-score of `CAACATGC` is reported as 0.323.
With `AGGCACAT` the E-score was 0.255.
The E-score of `CACGCGTA` is reported as 0.427.
With `CATGACCC` the E-score was 0.338.
`ATGTGGGC` has an E-score of 0.318.
`ACGACGTG` has an E-score of 0.295.
For `ATGCATGA`, the E-score was 0.303.
`ATGCACGG` gave an E-score of 0.262.
The E-score of `AAGACATG` is reported as 0.309.
`ACATGGAG` has an E-score of 0.348.
The E-score of `CACGAGAC` is reported as 0.346.
With `ACCTCATG` the E-score was 0.377.
With `CACATGCC` the E-score was 0.451.
`CGTCCCAC` gave an E-score of 0.325.
`CATGAGGA` gave an E-score of 0.403.

Set 3
Target: Histone acetyltransferase KAT6A, winged helix 2, GST fusion (KAT6A, Homo sapiens, UniProt Q92794, residues 85-181)
Method: protein binding microarray
Molecule type: double-stranded DNA, one strand shown
Matrix: in vitro
Concentration: not given
Notes: 8-mer, flanks averaged, mean of 2 arrays, mostly near background
Reference: not given
Direction: higher = stronger binding
Residues (chain): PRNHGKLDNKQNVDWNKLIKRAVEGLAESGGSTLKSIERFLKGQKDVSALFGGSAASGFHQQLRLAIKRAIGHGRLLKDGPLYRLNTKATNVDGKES
`AATCCGGA` has an E-score of 0.142.
For `GGTTTCTA`, the E-score was 0.0113.
The E-score of `ATTCGCCG` is reported as 0.318.
For `CCAATGTA`, the E-score was -0.238.
`AACGCGTT` gave an E-score of -0.0181.
With `CGCGCACC` the E-score was 0.206.
With `GGCTGCGA` the E-score was 0.0823.
With `TCCTGGAA` the E-score was 0.00796.
`CCTCTGTC` has an E-score of -0.0222.
With `CTCACACC` the E-score was -0.0708.
For `GGAATTAA`, the E-score was 0.0985.
For `AGCCAGAG`, the E-score was 0.0566.
`AATCACGA` has an E-score of -0.148.
For `AAACACAA`, the E-score was -0.00787.
For `TCGGCTAA`, the E-score was 0.0524.
For `GTACCGGA`, the E-score was -0.0325.
With `ATGATCGC` the E-score was -0.0982.
`AATCAGCG` gave an E-score of 0.103.
`ACAACCGG` has an E-score of -0.00912.
With `CCAATCTA` the E-score was 0.0479.

Set 4
Target: Sal-like protein 4, full length isoform B (SALL4, Homo sapiens, UniProt Q9UJQ4-2, residues 1-616)
Method: universal PBM
Molecule type: double-stranded DNA, one strand shown
Matrix: in vitro
Concentration: not given
Notes: 8-mer, flanks averaged, mean of replicates
Direction: higher = stronger binding
For `AACCCGTA`, the E-score was -0.0273.
For `TCAGGTCA`, the E-score was -0.0693.
`TGAACGCA` gave an E-score of 0.143.
`CGAACGGC` gave an E-score of -0.204.
`GGTGCTTA` has an E-score of -0.0707.
With `CACTTTAC` the E-score was 0.157.
`GACAGAGC` gave an E-score of -0.232.
With `ACGACCAA` the E-score was 0.0178.
`CATGACGC` gave an E-score of -0.145.
`CACGCAAC` gave an E-score of -0.116.
The E-score of `ACAGCGAG` is reported as -0.0809.
`GGACAACA` gave an E-score of -0.048.
`TAGACAAA` gave an E-score of 0.156.
With `CAATAGTC` the E-score was 0.0274.
For `GGCACAAA`, the E-score was 0.0162.
`TACGAACA` gave an E-score of 0.217.
For `ATGATTCG`, the E-score was 0.0363.
`AATGCTGG` gave an E-score of -0.0495.
`GTTTATCA` gave an E-score of 0.193.
For `AGCGCGAT`, the E-score was -0.143.
`CTACACTC` gave an E-score of -0.112.
`CAACGGGA` gave an E-score of -0.193.
The E-score of `CCAGTAAG` is reported as -0.0276.
The E-score of `ACTCGATG` is reported as -0.0136.
`AATTTCAG` gave an E-score of 0.184.

Repeated from above (set 4):
`GGACAACA` gave an E-score of -0.048.
`TAGACAAA` gave an E-score of 0.156.
With `CAATAGTC` the E-score was 0.0274.
For `GGCACAAA`, the E-score was 0.0162.
`TACGAACA` gave an E-score of 0.217.
For `ATGATTCG`, the E-score was 0.0363.
`AATGCTGG` gave an E-score of -0.0495.
`GTTTATCA` gave an E-score of 0.193.
